Results pooled from the literature.
Numbered parts are unrelated; each lists some results of a single study.

Sample 1 — technique: RNA Bind-n-Seq; form: RNA; matrix: in vitro; concentration: 100 nM; reference: input RNA pool; reading: higher = stronger binding
Target: RING finger protein unkempt homolog, zinc fingers 1-6, SBP tag (UNK, Homo sapiens, UniProt Q9C0B0, residues 30-357)
Chain of UniProt Q9C0B0 (30-357, looked up): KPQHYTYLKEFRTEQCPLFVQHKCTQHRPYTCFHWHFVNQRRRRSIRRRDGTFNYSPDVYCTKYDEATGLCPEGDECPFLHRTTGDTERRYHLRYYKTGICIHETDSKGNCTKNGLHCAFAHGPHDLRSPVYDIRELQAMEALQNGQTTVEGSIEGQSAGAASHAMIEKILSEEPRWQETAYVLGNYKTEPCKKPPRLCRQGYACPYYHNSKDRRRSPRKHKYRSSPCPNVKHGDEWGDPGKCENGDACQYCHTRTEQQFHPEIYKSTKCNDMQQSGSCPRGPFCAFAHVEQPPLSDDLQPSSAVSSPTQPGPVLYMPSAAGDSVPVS
Setting: RNA with constant flanks, vertebrate orthologous sites, ends assumed
Shared flanks, not repeated: GGGAGUUCUACAGUCCGACGAUC … CAACAGAGGAUUGAGCAUCA
| Sequence | bound/input enrichment [ratio] |
| --- | --- |
| GGGGCAGCCAGUGGGGAAAUCCCUGCCUUGGCCACCUGUCCGCUCCCUGCCACCUGCCCUUAGUUAUUUUUUUUUAACCACCACAUGAUUAUAGUUGGCAUUGUCCACUCAGCAAUGGGA | 3.23 |
| GUUGGUGCAGAGCGCCCCGGGCCACUGCUCUUCAUCCCUUCUUCACGCCAACCACCCCCCCUAGUUCUAGGAAUUUAAUGUUUUUAAAAGUUUUACAUUGCUGUAUAUUCAAAGAUUUGU | 1.64 |
| CAGCGCCAUGGUGGAGGGCUCCGAGCUCAAAAAGGUGCGCUCCAGCUCUAGGGUUUACCCCAGGUAUUUCCUGCUGGACGCCGACAUGCAGAGCCUGAGGUGGGAACCAUCCAAGAAGGA | 0.167 |
| CUUAAUUAGAGGGCAAUAUAUGUUUCAUAAAGAAGAGUCUUUAUAAUUUUGUUUGUCAGAUAGUAUUUUGGAAUUUGUAUAAUAAGGAUGUUUAGAAGCCAUAUAAGUGGCUUUUUUUAA | 0.38 |
| GGACCAUACAUAUACAAUGUGUAUCAAAUGCUGGUUGUAAAAUUAAACCAUCAUCUAGAAUAGAGUUCUUUUGUUAUAAUCAAGUUACAAAUAGGUUUUCUUAAACCAGAGAUGCACCGC | 0.465 |
| GGGAGAUAUUGAAUAGUAUUAAACAUUUUCGUCUUCCUUUACCUUUUAUCCCCUAAUACCUAGUCUUUUUUAAAUUUCAGACUUCACUGCUCUUUGAAUUGAUAAUUCCAAUUUUCACAU | 2.97 |
| GUGUUUUGUACAGGGCAUUCUCUGUACUAGUUUGUCGUGGUUAUAAAACAAUUAGCAGAAUAGCCUACAUUUGUAUUUAUUUUCUAUUCCAUACUUCUGCCCACGUUGUUUUCUCUCAAA | 1.22 |
| CUAUGUAGUGGUUAACGGUGGCGUCUUCCUCUGCAUCUCCCGUGAAGAAAAAAAAACAAACAUACUCCUCACACAUCUGAUGAUGCAGUUCUGUUUUUGUUUUCUGCUUUUACAUAUACA | 0.605 |

Sample 2 — technique: EMSA with sequencing; form: double-stranded DNA, one strand shown; matrix: in vitro; concentration: 10 and 20 nM; reference: negative control set to 0; reading: higher = stronger binding
Target: Hepatocyte nuclear factor 3-alpha (Foxa1, Mus musculus, UniProt P35582, residues 1-468, full length assumed)
Setting: whole designed probe, mean of two concentrations, ends assumed
Shared flanks, not repeated: GTGAGCGGTGCCCATTGATGGGGAAC … TTTCACTGGGATCGTGGGGAC
Construct (chain): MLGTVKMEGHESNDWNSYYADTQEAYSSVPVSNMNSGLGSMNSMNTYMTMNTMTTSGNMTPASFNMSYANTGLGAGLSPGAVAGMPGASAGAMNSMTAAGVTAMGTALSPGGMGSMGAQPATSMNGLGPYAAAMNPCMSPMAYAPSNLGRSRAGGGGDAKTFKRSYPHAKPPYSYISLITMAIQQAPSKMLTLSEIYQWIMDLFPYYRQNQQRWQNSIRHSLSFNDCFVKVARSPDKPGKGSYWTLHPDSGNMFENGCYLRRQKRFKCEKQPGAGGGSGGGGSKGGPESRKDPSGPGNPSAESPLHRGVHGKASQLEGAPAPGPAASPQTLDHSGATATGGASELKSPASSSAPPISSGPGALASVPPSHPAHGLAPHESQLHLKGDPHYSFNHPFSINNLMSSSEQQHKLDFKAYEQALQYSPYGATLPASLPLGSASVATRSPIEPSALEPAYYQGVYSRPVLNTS
| Sequence | normalised bound fraction |
| --- | --- |
| ATCTTCCCCCTCTTCCTTGCCCCACCAGCTCACCTTCCCGGGTTATTTGCACAAAGGAAAATAAATAAAGCCGGCATTCGTTAACGCAGTTCACGCGCATACTGCTGTTTGCTCTGGATCTAACATGGTCCTTTGGCGAGGCGTGGCTCCGGGAGAGCAAAGCACCGTGTCAGGGCCATGATCCGGGGTGGCC | 0.367 ratio |
| TATGAATTACAAACATTAAAATTGGCTACAACTCCTCTTCAACCAATTACTAACAAGAAGCACCTAAAAGGTCAAAATCATGAAACACCAAAGTAATCTGACATGTGTGCACCTTTTGCTAAATACCAGTCACATAATCCAACATGTATTCATTATATTTTTGACACTAGGAAATAGTTTAAACCTTGGTTTA | 0.0721 ratio |
| TGTGCAATGAAAACACTTCACCATAAAAGTTCACATTTTATTTTAAGTAAGAGAAATAATAGCAATACTCAGGGCCATTTTCCCAACTGCTTGCTGTTTACATTGCAATAGCATTGCACTTTTGTTAAAAATATAAATGTCATATTCCTAAATATTTTCTCCAGATGTTGTCAATCTTATCACTATTTGACAC | 0.289 ratio |
| ATCTTCCCCCTCTTCCTTGCCCCACCAGCTCACCTTCCCGGGTATCTGCAAATAAGGAAAATAAATAAAGCCGGCATTCGTTAACCCTCTTCTGGCGCAAACTGCCAGAGCAAACAGATGAATCATGGTCCTTTGGCGACGCCAGGCTCCGGGAGAGCAAAGCACCGTGTCAGGGCCATGATCCGGGGTGGCC | 0.385 ratio |
| CTAGTTCCAGTCTTAGCATGACAATTTCTTCCTGCAACGTACTATTTTCATGCAAGAGGTCTTTTTCTTTCTTATAACTAAGAGAAAGCTAAGTAAACAAAGGGAACTTTTAGTTAGCACTCAATAGATTGATATATCATGATTTCTTCTGAAATTAAAAAATAACATCTGTATTTGTATAATGAAAGAATCC | 0.514 ratio |

Sample 3 — technique: protein binding microarray; form: double-stranded DNA, one strand shown; matrix: in vitro; concentration: not given; reference: not given; reading: higher = stronger binding
Target: Histone acetyltransferase KAT6A, both winged helices, GST fusion (KAT6A, Homo sapiens, UniProt Q92794, residues 1-181)
Setting: 8-mer, flanks averaged, mean of 2 arrays, mostly near background
Construct (chain): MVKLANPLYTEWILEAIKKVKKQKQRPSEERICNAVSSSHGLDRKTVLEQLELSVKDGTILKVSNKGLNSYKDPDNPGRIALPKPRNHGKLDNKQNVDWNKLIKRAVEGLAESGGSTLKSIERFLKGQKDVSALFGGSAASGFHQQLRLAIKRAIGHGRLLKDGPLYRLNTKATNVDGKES
| Sequence | E-score |
| --- | --- |
| GCTGGTAC | 0.0336 |
| CGTCGTGA | 0.191 |
| ATTAACCC | -0.0167 |
| CTTGTCGC | 0.136 |
| CATTCAAC | 0.00116 |
| CCGAGGAG | 0.00504 |
| ATTGATCG | 0.082 |
| CCAGAACC | -0.0645 |
| ATTTACCC | -0.16 |
| GTGCAAAA | -0.066 |
| ACAACGCC | 0.178 |
| ACTCCAAG | -0.0955 |
| CAGAAAAG | -0.126 |
| CACAGGAG | -0.0623 |
| CAGCTGGG | -0.163 |
| GACCCGCC | 0.208 |
| TATAGGAA | -0.0527 |
| ATTCCGTG | 0.244 |
| GAATTCCA | -0.0574 |

Sample 4 — technique: RNA Bind-n-Seq; form: RNA; matrix: in vitro; concentration: 365 nM; reference: no-protein control; reading: higher = stronger binding
Target: RNA binding protein fox-1 homolog 2, RRM domain, GST-SBP tag (RBFOX2, Homo sapiens, UniProt O43251-10, residues 100-194)
Setting: natural RNA segment, single round, ends assumed
Shared flanks, not repeated: GGGAGUUCUACAGUCCGACGAUC … UGGAAUUCUCGGGUGCCAA
Construct (chain): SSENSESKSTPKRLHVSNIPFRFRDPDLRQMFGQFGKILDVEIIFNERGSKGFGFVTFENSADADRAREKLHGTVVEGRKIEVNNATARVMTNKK
| Sequence | RBNS enrichment (R) |
| --- | --- |
| GAAACUGAGGGGCAAGAUAACCCCCACAUGACACGUGACAUCACUUUGGGGACAGCCCAGUUGCCAUUGUGGGACAGAACCCCAGUCCUGCGUUUCAGGGACAUGGGGAG | 0.481 |
| CUGGCUGCGCCAAUGCCCCAGCUGCUUUGUGGGCAGGCUCUACUAGUUGGCGAGGCACCUGCACAUUUCUGAGUGUCCAUGUUUCCUUUGAGACAUCCCCAUUUCUAUGU | 0.361 |
| GUCCUUGGCCGUCUCCCUCAGCUCUGCCUGGGCUCCGAGGGAGAUGGAAGUCCGUCAGGGAACAGGUAGUUCUAAGUGCGUGGCUAAAUGAUUUGGACAAGCUCCUGUGU | 0.414 |
| UCGACAAAUGAGGGCAGACGGCUAAUCCACAUGGUCUUCGUCCUUGACGUCGUUUUACAAGAAAACAAUGGGGCUGGUUUUGCUUCCCCGUGCAUGAUUUACUCUUAGAG | 4.5 |
| CCAGUGCCUGUGGAGUCAGCCAGCCGAGGGUCUGCCUCCUCAGCUGCCCCAGGGGGGCCUCCCUCCUGAGGCUCAAGCUCCUGGCGUCUUUCUUCCUGUUGCUGGAUUCU | 0.467 |
| UGCGCCACCUUCACCUGGGUUUUCUUUCUUAAAGGAACAGGUUAGAGCAAGUGACCGUUGAGGACAGGUGAUGUGAAUGUUUGUUCUAGAUUUAAUUCAGUUUUCUGAAU | 0.528 |
| GGACUACUUUCUCCACUAUGAAGAUGACUUGGAAAUCGCAACAUCAUGGUACAUUGCUAAGUCCAUGCUUGUGUGUGUGACAGUAGGCUUGAUAAUUUAUCUUAAAACAC | 0.676 |
| CCCUACAGUAAAUAAACCAGCAUCGUGCCGCCCAAAGCCGCCUCUGCUUAGUUGCCAAACAAGGGGUCUUCCACCCCCUAUUCUACUGAUUUCUGGACCCAGGGAAGGGA | 0.29 |

Excerpt of the above (sample 3):
| Sequence | E-score |
| --- | --- |
| ATTAACCC | -0.0167 |
| ACAACGCC | 0.178 |
| CTTGTCGC | 0.136 |
| GTGCAAAA | -0.066 |
